Results of several laboratories.
Compare with care: the assays were run in different laboratories. ± gives the spread as reported.
OVA5: Lysine--tRNA ligase, chloroplastic/mitochondrial (OVA5, Arabidopsis thaliana, UniProt Q9LJE2)
XDH: Xanthine dehydrogenase/oxidase (XDH, Homo sapiens, UniProt P47989)
PRKACA: cAMP-dependent protein kinase catalytic subunit alpha (PRKACA, Homo sapiens, UniProt P17612)
NTRK1: High affinity nerve growth factor receptor (NTRK1, Homo sapiens, UniProt P04629)
SGK3: Serine/threonine-protein kinase Sgk3 (SGK3, Homo sapiens, UniProt Q96BR1)
SMARCA4 bromodomain: SWI/SNF-related matrix-associated actin-dependent regulator of chromatin subfamily A member 4, bromodomain (SMARCA4, Homo sapiens, UniProt P51532)

| Structure (SMILES) | target | assay | test system | conditions | IC50 |
| --- | --- | --- | --- | --- | --- |
| Nc1cc(C(=O)NCc2ccc(F)cc2F)sn1 | OVA5 | enzyme activity, inhibitor |  |  | 63.1 µM |
| CC1Cc2ccccc2N1NC(=O)c1ccc(Cl)c(S(N)(=O)=O)c1 (centres unmarked) | XDH | enzyme activity, inhibitor |  |  | > 75 µM |
| O=[N+]([O-])c1ccccc1-c1ccc(CN2CCCC2c2cccc(N3CCCCC3)c2)o1 (centres unmarked) | Interleukin-1 receptor-like 1, with IL-33 (IL1RL1, Homo sapiens, UniProt Q01638) | binding, AlphaLISA |  |  | 5 to 7 µM |
| N[C@H]1CCCN(C(=O)C2=CN(c3ncnc4[nH]ccc34)CCS2)C1 | PRKACA |  |  |  | < 0.1 µM |
| Cc1c(N)nsc1C(=O)NCC1CCCCC1 | OVA5 | enzyme activity, inhibitor |  |  | 63.1 µM |
| CC(C)(C)Cn1c(N)nc2ccc(-c3[nH]c(C(C)(C)C)nc3-c3ccc(F)cc3)nc21 | EGFR common activating mutants | enzyme activity, inhibitor |  | together with: 1 mM ATP | 0.011 to 0.246 µM |
| COc1ccc(/C=C/C(=O)Nc2ccccc2C(=O)O)cc1OC | XDH | enzyme activity, inhibitor |  |  | > 75 µM |
| Cc1nn(-c2nc3ccccc3[nH]2)c(O)c1C(c1ccccc1C(=O)O)c1c(C)nn(-c2nc3ccccc3[nH]2)c1O | Cyclic GMP-AMP synthase (CGAS, Homo sapiens, UniProt Q8N884) | enzyme activity, inhibitor, pyrophosphatase-coupled |  | mean of 3 runs | 5.52 µM |
| CCn1c(-c2nc3ccc(C(=O)N4CCCC(N)C4)cc3n2C)cc2ccccc21 (centres unmarked) | 5-hydroxytryptamine receptor 3A (HTR3A, Homo sapiens, UniProt P46098) | intracellular calcium, antagonist, fluorescence |  |  | 2.51 µM |
| Cc1ncc(C2=CN(c3ncnc4[nH]cc(C)c34)CCS2)o1 | PRKACA |  |  |  | > 10 µM |
| Nc1nsc(C(=O)NC[C@@H]2CCCC[C@@H]2Cl)c1Cl | OVA5 | enzyme activity, inhibitor |  |  | 10 µM |
| N=C(N)Nc1cccc(C(=O)NCC(=O)NC[C@H](NC(=O)c2c(Cl)cccc2Cl)C(=O)O)c1 | Integrin alpha-5/beta-1 (Homo sapiens, UniProt P05556+P08648) | cell adhesion, inhibitor | SW480 | together with: fibronectin 0.3 µg/mL | 0.0501 µM |
| Cc1cnc(-c2ccc(-c3ccc(NC(=O)Nc4c(F)cc(F)cc4F)cc3F)c3c2C(=O)NC3)[nH]1 | NTRK1 | enzyme activity, inhibitor, mobility shift |  | together with: ATP 1 mM | 0.0034 µM |
| CC/C(=N\NC(=O)NCc1cccc(O)c1)c1ccc(O)c(C)c1O | SGK3 | kinase activity, inhibitor |  |  | 0.019 ± 0.00248 µM |
| C[C@H]1Oc2cc(cnc2N)-c2c(nn(C)c2C#N)CN(C)C(=O)c2ccc(F)cc21 | NTRK1 | enzyme activity, inhibitor |  |  | 0.13 µM |
| COc1cc(Cl)c(C(=O)N[C@@H](CN[C@H]2CC[C@@H](N)CC2)Cc2ccc(C#N)cc2)cc1-c1ccc(CN[C@H](C)c2ccc(C)cc2)o1 | ATPase family AAA domain-containing protein 2, bromodomain (ATAD2, Homo sapiens, UniProt Q6PL18) | binding, TR-FRET |  | together with: peptide, histone H4, tetra-acetylated | 0.0221 µM |
| O=C(Nc1cccc2c(=O)cc(-c3nnn[nH]3)oc12)c1ccc(OCCCCc2ccccc2)cc1 | LRRC8A/LRRC8C (Homo sapiens, UniProt Q8IWT6+Q8TDW0, L134K/L136K) | ion current, inhibitor, whole-cell patch clamp | HCT116 LRRC8-/- transfected | at +100 mV | 1.4 µM |
| Nc1nsc(C(=O)NCc2ccc(F)cc2F)c1Cl | OVA5 | enzyme activity, inhibitor |  |  | 39.8 µM |
| Cc1ncsc1-c1ccc(CNC(=O)[C@@H]2C[C@H](O)CN2C(=O)[C@@H](NC(=O)C2(F)CC2)C(C)(C)C)c(OCCc2ccc(CN3CCN(c4cc(-c5ccccc5O)nnc4N)CC3)cc2)c1 | SMARCA4 bromodomain | binding, TR-FRET competition |  | binary without VCB | 1.2 µM |
| Cc1ncc(C2=CN(c3ncnc4[nH]ccc34)CCS2)o1 | PRKACA |  |  |  | > 10 µM |
| C[C@H]1Oc2cc(cnc2N)-c2c(nn(C)c2C#N)CN(C)C(=O)c2ccc(F)cc21 | NTRK1 | enzyme activity, inhibitor |  | together with: 1 mM ATP | 0.126 µM |
| Nc1nsc(C(=O)NCC2CCCC2)c1Cl | OVA5 | enzyme activity, inhibitor |  |  | 15.8 µM |
| O=c1cc(-c2ccc(O)c(O)c2)oc2cc(O[C@@H]3O[C@H](CO)[C@@H](O)[C@H](O)[C@H]3O)cc(O)c12 | L-lactate dehydrogenase B chain (LDHB, Homo sapiens, UniProt P07195) | enzyme activity, inhibitor | purified enzyme |  | 110 ± 19.9 µM |
| O=C1OC2(c3ccccc31)c1cc(Br)c(O)c(Br)c1Oc1c2cc(Br)c(O)c1Br | XDH | enzyme activity, inhibitor |  |  | > 75 µM |

| Structure (SMILES) | target | assay | test system | conditions | IC50 |
| --- | --- | --- | --- | --- | --- |
| O=C(O)CC[C@H](NC(=O)N[C@@H](CCCCNC(=O)[C@H](Cc1ccc2ccccc2c1)NC(=O)[C@H]1CC[C@H](CNC(=O)CN2CCN(CC(=O)O)CCN(CC(=O)O)CCN(CC(=O)O)CC2)CC1)C(=O)O)C(=O)O | Glutamate carboxypeptidase 2 (FOLH1, Homo sapiens, UniProt Q04609) | competitive binding | 22Rv1 | together with: 68Ga-labelled compound | 0.00338 µM |
| CO[C@@H]1[C@H](O)[C@@H](O)C(NCc2ccc(C)cc2)=N[C@@H]1CO | sweet almond β-glucosidase | enzyme activity, inhibitor |  | pH 5.00, together with: 2-chloro-4-nitrophenyl β-D-glucopyranoside | > 5000 µM |
| C=CC(=O)Nc1cc(Nc2nccc(-c3cn(C)c4ccccc34)n2)c(OC)cc1N(C)CCN(C)C | Solute carrier family 22 member 2 (SLC22A2, Homo sapiens, UniProt O15244) | transport |  |  | 7.98 µM |
| O=C1N[C@H](CO)[C@H](O)[C@H](O)[C@H]1O | sweet almond β-glucosidase | enzyme activity, inhibitor |  | pH 5.00, together with: 2-chloro-4-nitrophenyl β-D-glucopyranoside | > 1000 µM |
| NC(=O)[C@@H]1CC[C@@H]2CN1C(=O)N2OS(=O)(=O)O | beta-lactamase RAD-1 (Riemerella anatipestifer) | enzyme activity, inhibitor, spectrophotometric reporter substrate hydrolysis |  |  | 13 µM |
| CCc1cc2c(cc1N1CCC(N3CCOCC3)CC1)C(C)(C)c1[nH]c3cc(C#N)ccc3c1C2=O | NTRK1 | enzyme activity, inhibitor |  | together with: 1 mM ATP | 0.371 µM |
| Cc1cnc(-c2ccc(-c3ccc(NC(=O)Nc4c(F)cc(F)cc4F)cc3F)c3c2C(=O)NC3)[nH]1 | Aurora kinase C (AURKC, Homo sapiens, UniProt Q9UQB9) | kinase activity, inhibitor, cell-free |  | 90 min, 28 °C, together with: ATP | 0.00295 µM |
| CN1CCN(c2ccc(Nc3ncc4cc(C#N)c(=O)n(C5CCCC5)c4n3)cc2)CC1 | Casein kinase II subunit alpha' (CSNK2A2, Homo sapiens, UniProt P19784) |  |  |  | 0.0722 µM |
| Cc1cc([C@@H](C)Nc2ccccc2C(=O)O)c2nc(N3CCC(F)(F)CC3)c(C#N)c(=O)n2c1 | Phosphatidylinositol 4,5-bisphosphate 3-kinase catalytic subunit beta isoform, with p85 alpha (PIK3CB, Homo sapiens, UniProt P42338) | ADP-Glo |  | together with: ATP 10 µM | > 10 µM |
| C[C@@H]1C[C@@H](N)CN(C(=O)C2=CN(c3ncnc4[nH]ccc34)CCS2)C1 | PRKACA |  |  |  | 0.0056 ± 0.0007 µM |
| CC[C@@H]1[C@H](F)C(=O)N[C@@H]1COc1nccc2cc(C(N)=O)c(OC)cc12 | SGK3 | ATP-site probe binding, ActivX profiling | THP-1 cell lysate | Lys2 site | > 5 µM |
| Sc1ncnc2nc[nH]c12 | CUGBP Elav-like family member 1 (CELF1, Homo sapiens, UniProt Q92879, del215-384) | CELF1-RNA binding, inhibitor, fluorescence polarization |  | CELF1 20 nM, preincubation 30 min, together with: RNA 10 nM | 26.9 µM |
| CCn1c(-c2nc3cc(C(=O)N4CCC[C@@H](N)C4)cc(OC)c3n2C)cc2cccnc21 | Phosphatidylinositol 4,5-bisphosphate 3-kinase catalytic subunit gamma isoform (PIK3CG, Homo sapiens, UniProt P48736) | TR-FRET |  |  | > 31.6 µM |
| C=CC(=O)N1CCN(c2nc(=O)n(-c3c(C)ccnc3C(C)C)c3nc(-c4c(O)cccc4F)c(F)cc23)[C@@H](C)C1 | GTPase HRas (HRAS, Homo sapiens, UniProt P01112, C181S/C184S/C186S/G12C) |  |  |  | 0.087 µM |
| COc1c(C=O)c2c(c3c1CC(C)(C)C3)C(=O)OC(O)C2 (centres unmarked) | 14 kDa phosphohistidine phosphatase (Homo sapiens, UniProt Q9NRX4, C69A/C71A/C73A) | enzyme activity, inhibitor |  |  | 14 ± 3 µM |
| C1=C(c2cccnc2)SCCN1c1ncnc2[nH]cnc12 | PRKACA |  |  |  | > 10 µM |
| Cc1ncsc1-c1ccc(CNC(=O)[C@@H]2C[C@@H](O)CN2C(=O)[C@@H](NC(=O)C2(F)CC2)C(C)(C)C)c(OCCOc2ccc(CN3CCN(c4cc(-c5ccccc5O)nnc4N)CC3)cc2)c1 | SMARCA4 bromodomain | binding, TR-FRET competition |  | binary without VCB | 0.56 µM |
| Nc1nsc(C(=O)NC2CCC3(CC2)CC3(F)F)c1Cl (centres unmarked) | OVA5 | enzyme activity, inhibitor |  |  | > 100 µM |
| N[C@@H]1CCN(C(=O)C2=CN(c3ncnc4[nH]ccc34)CCS2)C1 | PRKACA |  |  |  | < 0.1 µM |
| Nc1nsc(C(=O)NCc2cc(F)c(F)cc2F)c1Cl | OVA5 | enzyme activity, inhibitor |  |  | 15.8 µM |
| CC(=O)c1n[nH]c2ccc(-c3cnc4ccc(N(C)C5CCOCC5)nn34)cc12 | Triggering receptor expressed on myeloid cells 1, dimer (TREM1, Homo sapiens, UniProt Q9NP99) | split luciferase reporter | human cells | 6 h, treatment 48 h after induction, together with: doxycycline induction | 3.4 ± 1.6 µM |
| COc1c(N)nsc1C(=O)NCC1CCCCC1 | OVA5 | enzyme activity, inhibitor |  |  | 50.1 µM |
| O=C(NO)c1ccc(Cn2cnc3c(Nc4cccc([N+](=O)[O-])c4)ncnc32)cc1 | RAC-alpha serine/threonine-protein kinase (AKT1, Homo sapiens, UniProt P31749) | kinase activity, inhibitor |  | together with: ATP 10 µM | 19.2 µM |
